Experimental data of several laboratories.
Numbers after ± are the reported error.

| Structure (SMILES) | assay | test system | setting | MRT(0-inf) |
| --- | --- | --- | --- | --- |
| CC[C@@H]([C@H](C)O)n1ncn(-c2ccc(N3CCN(c4ccc(OC[C@@H]5CO[C@@](Cn6cncn6)(c6ccc(F)cc6F)C5)cc4)CC3)cc2)c1=O |  | Sprague-Dawley rats, plasma | oral, 40 mg/kg, added: zanubrutinib 16 mg/kg | 15.7 ± 10.9 h |
| CCN(CC)Cc1ccc2cc(COC(=O)Nc3ccc(C(=O)NO)cc3)ccc2c1 |  | Sprague-Dawley rat, male, plasma | oral, 10 mg/kg | 7.76 ± 4.8 h |
| C=CC(=O)N1CCC(Oc2cc3c(Nc4ccc(Cl)c(Cl)c4F)ncnc3cc2OC)CC1 |  | Sprague-Dawley rat, male, plasma | oral, 2 mg/kg, added: vehicle pretreatment | 5.01 ± 0.69 h |
| C=CC(=O)N1CCC([C@@H]2CCNc3c(C(N)=O)c(-c4ccc(Oc5ccccc5)cc4)nn32)CC1 |  | Sprague-Dawley rats, plasma | oral, 16 mg/kg, added: posaconazole 40 mg/kg | 5.64 ± 1.16 h |
| O=C1CC[C@H](N2Cc3cc(N4CCN(CC5CCN(c6ccc([C@@H]7c8ccc(O)cc8CC[C@@H]7c7ccccc7)cc6)CC5)CC4)ccc3C2=O)C(=O)N1 | item: parent compound | Sprague-Dawley rat, male, fed, plasma | intravenous, 5 mg/kg | 3.04 ± 0.29 h |
| Cc1cccc(CNC(=O)c2cn(CCNC(=O)c3ccccc3Sc3c([N+](=O)[O-])ncn3C)c3cc4c(cc3c2=O)OC(F)(F)O4)n1 |  | Sprague-Dawley rat, male, whole blood | intramuscular, 30 mg/kg of parent drug | 9.29 h |
| CCCCN1CCN(C(C)C(=O)Nc2c(C)csc2C(=O)OC)CC1 (stereo not drawn) |  | rat (Sprague-Dawley, male), plasma | subcutaneous, 62.3 mmol/L | 1.57 h |
| Cc1cccc(CNC(=O)c2cn(CCNC(=O)c3ccccc3S)c3cc4c(cc3c2=O)OC(F)(F)O4)n1 |  | Sprague-Dawley rat, male, whole blood | intravenous, 5 mg/kg of parent compound | 4.09 ± 0.62 h |
| CCc1cc(C(=O)NC)c2nccc(N3CCc4c(cc(Cn5ccnc5)cc4-c4cn(C)nc4C(F)(F)F)C3=O)c2c1 |  | Sprague Dawley rat, male, plasma | oral, 100 mg/kg once daily, 7 days, toxicokinetic satellite group | 3.9 h |
